# Experimental data collected from several papers.
# Compare with care: the assays were run in different laboratories. ± gives the spread as reported.
# Sequence of UniProt P28482 (whole entry, looked up): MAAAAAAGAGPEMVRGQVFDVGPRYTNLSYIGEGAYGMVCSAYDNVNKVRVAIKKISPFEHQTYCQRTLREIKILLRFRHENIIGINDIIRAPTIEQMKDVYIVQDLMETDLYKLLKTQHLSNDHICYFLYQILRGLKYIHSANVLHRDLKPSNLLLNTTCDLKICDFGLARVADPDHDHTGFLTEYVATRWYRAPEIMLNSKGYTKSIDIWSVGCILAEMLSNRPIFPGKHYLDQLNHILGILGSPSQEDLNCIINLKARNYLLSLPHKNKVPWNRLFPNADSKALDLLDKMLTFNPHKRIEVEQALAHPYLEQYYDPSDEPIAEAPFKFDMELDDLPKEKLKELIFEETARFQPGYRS
Structure (SMILES),target or system,test,system,setting,scale,measurement,result
COc1ccccc1-c1n[nH]c2nc(NC3CCN(C(=O)Cc4ccc(F)cc4F)CC3)ncc12,,"bead binding, competition bead pull-down, refers to: LINJ.23.0310",Leishmania donovani axenic amastigote extract,10 µM,baseline: vehicle,relative abundance,0.96
N=C(N)NCCC[C@H](NC(=O)[C@@H]1CCCN1C(=O)[C@@H]1CSCSC[C@H](N)C(=O)N[C@@H](Cc2ccc(O)cc2)C(=O)N[C@@H](Cc2ccccc2)C(=O)N[C@@H](CCC(N)=O)C(=O)N[C@@H](CC(N)=O)C(=O)N1)C(=O)NCC(N)=O,,chemical stability,"male human, serum",490 µM,,half-life,1.5 h
CC(C)N1CCCCC1C(=O)NC(Cc1ccc(-c2ccccc2)cc1)B(O)O (stereo not shown),,,"rat, plasma","intravenous, 1 mg/kg",,half-life,5.3 h
CC[C@H](C)[C@H](NC(=O)[C@H](Cc1ccc(O)cc1)NC(=O)[C@@H](NC(=O)[C@H](CCCNC(=N)N)NC(=O)[C@@H](N)CC(=O)O)C(C)C)C(=O)N[C@@H](Cc1c[nH]cn1)C(=O)N1CCC[C@H]1C(=O)O,,,"Beagle dogs, both sexes, plasma","subcutaneous, 10 mg/kg/day, day 27",,half-life,0.462 ± 0.067 h
CC(C)[C@H]1NC(=O)[C@H](Cc2ccccc2)NC(=O)[C@@H](C(C)C)NC(=O)[C@@H](C)NC(=O)[C@H](CO)NC(=O)[C@@H](Cc2c(-c3ccc(-c4ccc5ccccc5c4)cc3)[nH]c3ccccc23)NC(=O)[C@@H](CO)NC1=O,,,"female Sprague-Dawley rat, plasma","intravenous, 1 mg/kg, single dose",,half-life,0.089 h
CC1(C)C(=O)N(c2ccc(C#N)c(C(F)(F)F)c2)C(=S)N1c1ccc(C(=O)O)c(F)c1,,,"male human, plasma","oral, 40 mg, single dose, fasted",,half-life,225 h
Cn1nc(NS(C)(=O)=O)c2c(Cl)ccc(-n3c([C@H](Cc4cc(F)cc(F)c4)NC(=O)Cn4nc(C(F)F)c5c4C(F)(F)[C@@H]4C[C@H]54)nc4nc(OCCC(F)(F)F)ccc4c3=O)c21,,,"human, plasma","oral, 125 mg single dose, powder in bottle, geometric mean",,half-life,54.4 h
O=C1NC2(CC2)COc2ncc(F)cc2[C@H]2COCCN2c2ccn3ncc1c3n2,,,"Sprague-Dawley rat, female, adrenals","oral, 5 mg/kg/day, 4 weeks dosing, end of recovery",,organ-to-brain weight ratio,3.95 ± 0.77%
CC1(C)C(=O)N(c2ccc(C#N)c(C(F)(F)F)c2)C(=S)N1c1ccc(C(N)=O)c(F)c1,,,"male human, plasma","oral, 80 mg, single dose, fasted",,half-life,189 h
CS(C)(=O)=Nc1ccc(-c2ccc(-c3nc4cc(O[C@@H]5CO[C@H]6[C@@H]5OC[C@H]6O)[nH]c4cc3F)cc2)cc1,"Mitogen-activated protein kinase 1 (MAPK1, Homo sapiens, UniProt P28482)","enzyme activity, inhibitor",,10 µM,,inhibition,19%
CCN(CC)CCOc1ccc(-c2nnn(Cc3ccc(OC)cc3)c2N)cc1,,metabolic stability,"monkey, liver microsomes",,,half-life,0.927 h
CN1CCCCC1C(=O)NC(Cc1ccc(-c2ccccc2)cc1)B(O)O (stereo not shown),,,"rat, plasma","oral, 1 mg/kg",,half-life,4.8 h
Cc1nc2cccc(OCC(C)(C)C(=O)NC(C)C)c2c(N)c1C(=O)[O-].[Na+],Salmonella typhimurium,Ames plate incorporation,TA98,"0.13 mg/plate, with: with rat liver S9",,revertant colonies,41 ± 5 colonies/plate

# Repeated from above:
Structure (SMILES),target or system,test,system,setting,scale,measurement,result
CC[C@H](C)[C@H](NC(=O)[C@H](Cc1ccc(O)cc1)NC(=O)[C@@H](NC(=O)[C@H](CCCNC(=N)N)NC(=O)[C@@H](N)CC(=O)O)C(C)C)C(=O)N[C@@H](Cc1c[nH]cn1)C(=O)N1CCC[C@H]1C(=O)O,,,"Beagle dogs, both sexes, plasma","subcutaneous, 10 mg/kg/day, day 27",,half-life,0.462 ± 0.067 h
